Measurements gathered from unrelated publications.
Compare with care: the assays were run in different laboratories.

| Compound | test | system | conditions | how to read | measurement | value |
| --- | --- | --- | --- | --- | --- | --- |
| NC(=O)N1c2ccccc2C=Cc2ccccc21 |  | male patients | oral, dose not given, treatment-related adverse events |  | patients with back pain | 7% |
| FC(F)(F)c1ccc(CNc2ccc(Cc3c[nH]c4ncc(Cl)cc34)cn2)cn1 | item: alanine aminotransferase increased | advanced solid tumour patients | oral, 1000 mg/day, all grades, all cohorts |  | patients with treatment-related adverse event | 11% |
| Cc1cc(-c2nnc(N)nc2-c2ccc(F)cc2)cc(Cl)n1 | item: Hypothyroidism | IO-naive mCRPC patients, male | oral, dose not given, treatment-related, grade 2 |  | patients with immune-mediated AE | 0% |
| COc1cc(Nc2ncc3c(n2)-c2ccc(Cl)cc2C(c2c(F)cccc2OC)=NC3)ccc1C(=O)O | item: increased AST, grade 1 | cancer patients, phase 1/2 | oral, dose not given, with: pembrolizumab |  | patients with adverse event | 17% |
| C=CC[C@@H]1/C=C(\C)C[C@H](C)C[C@H](OC)[C@H]2O[C@@](O)(C(=O)C(=O)N3CCCC[C@H]3C(=O)O[C@H](/C(C)=C/[C@@H]3CC[C@@H](O)[C@H](OC)C3)[C@H](C)[C@@H](O)CC1=O)[C@H](C)C[C@@H]2OC |  | kidney transplant recipients, CYP3A5*1/*1 or *1/*3 rapid metabolizers, whole blood | oral, dose not given |  | patients with subtherapeutic C0 | 67% |
| COCCOc1cnc2ccn([C@H](C)c3nnc4c(F)cc(-c5cnn(C)c5)cn34)c(=O)c2c1 |  | cancer patients | oral, dose not given, absolute QTcF >480 ms |  | patients with QTcF over threshold | 8.1% |
| Cc1cc(NC2CCN(C(=O)OC3CCN(C(=O)/C=C/CN(C)C)C3)CC2)n2ncc(C(C)C)c2n1 (stereo not shown) | Phase I dose escalation CTCAE v4.0, item: decreased appetite | patients with advanced solid tumours | dose not given, Total dosing grade 3 or higher |  | patients with adverse event | 2% |
| O=C(Nc1nc2cccc(-c3ccc(CN4CCS(=O)(=O)CC4)cc3)n2n1)C1CC1 |  | rheumatoid arthritis patients | oral, 100 mg twice daily, 4 weeks, regardless of relatedness |  | patients with gingival bleeding | 0% |
| C=CCN1CC(=O)N2[C@@H](Cc3ccc(O)cc3F)C(=O)N(Cc3cccc(N4CC(N5CCN(CC)CC5)C4)n3)C[C@@H]2N1C(=O)NCc1ccccc1 |  | advanced solid tumour patients | 100 mg twice daily, treatment-related, any grade |  | patients with ALT increased | 33.3% |
| CCOc1c([C@H](C)n2nc(C)c3c(N)ncnc32)cc(Cl)c(F)c1[C@@H]1CNC(=O)C1 | item: QTcF change above 60 ms | previously treated B-cell malignancy | oral, 30 mg once daily, overall population | relative to: baseline | patients | 0% |
| C=CC(=O)Nc1cc(Nc2nccc(-c3cn(C)c4ccccc34)n2)c(OC)cc1N(C)CCN(C)C | item: treatment-related grade ≥3 Anemia | EGFR-mutant MET-altered NSCLC | oral |  | patients with adverse events | 0% |
| CNC(=O)c1ccc(-c2cnc3ncc(Cc4ccc5ncccc5c4)n3n2)cc1F | item: Vomiting, all grades | gastric cancer patients | oral, 600 mg twice daily, expansion cohort, any causality |  | patients with adverse event | 33% |
| C[C@@H](Nc1cc(F)cc(F)c1)c1cc(C(=O)N(C)C)cc2c(=O)cc(N3CCOCC3)oc12 | CTCAE v4, item: pulmonary embolism | patients with advanced solid tumours | oral, dose not given, phase I dose finding |  | patients discontinuing for AE | 0% |
| O=C(NC[C@H]1CN(c2ccc(N3CCOCC3=O)cc2)C(=O)O1)c1ccc(Cl)s1 | Phoenix NLME | atrial fibrillation patients, plasma | oral, dose not given |  | patients above AUC range | 12% |
| Cc1cc(Nc2ccc(S(F)(F)(F)(F)F)cc2)n2nc(C(C)(F)F)nc2n1 |  | Plasmodium vivax malaria patients | oral, 600 mg |  | patients with eye disorders | 0% |
| CCO[C@H]1CCN(Cc2c(OC)cc(C)c3[nH]ccc23)[C@H](c2ccc(C(=O)O)cc2)C1 | item: Pyrexia | PNH patients, active haemolysis | oral, 100 mg twice daily, extension phase |  | patients with adverse event | 20% |
| COc1ccc([C@@H](O)c2cc(-c3ncnc4cc(N5CCOCC5)ccc34)c(F)cc2Cl)nn1 | item: general and administration site disorders | locally advanced rectal cancer patients | 50 mg, with: capecitabine plus radiotherapy |  | patients with drug-related AE | 100% |
| Cc1ccc(C(=O)N(CCCN)C(c2nc3snc(C)c3c(=O)n2Cc2ccccc2)C(C)C)cc1 (stereo not shown) |  | patients | intravenous, 16 mg/day |  | patients with grade ≥3 adverse events | 44% |
| CC(C)C[C@H](NC(=O)[C@@H](Cc1c[nH]c2ccccc12)NC(=O)[C@H](Cc1ccc(O)cc1)NC(=O)[C@H](CO)NC(=O)[C@H](Cc1c[nH]c2ccccc12)NC(=O)[C@H](Cc1c[nH]cn1)NC(=O)[C@@H]1CCC(=O)N1)C(=O)N[C@@H](CCCNC(=N)N)C(=O)N1CCC[C@H]1C(=O)NCC(N)=O |  | Chinese CPP children, boys | intramuscular, 22.5 mg, 12 months, day 1, month 6 |  | patients with adverse events | 100% |

Some of these lines once more:
| Compound | test | system | conditions | how to read | measurement | value |
| --- | --- | --- | --- | --- | --- | --- |
| Cc1cc(Nc2ccc(S(F)(F)(F)(F)F)cc2)n2nc(C(C)(F)F)nc2n1 |  | Plasmodium vivax malaria patients | oral, 600 mg |  | patients with eye disorders | 0% |
| CCO[C@H]1CCN(Cc2c(OC)cc(C)c3[nH]ccc23)[C@H](c2ccc(C(=O)O)cc2)C1 | item: Pyrexia | PNH patients, active haemolysis | oral, 100 mg twice daily, extension phase |  | patients with adverse event | 20% |
| COc1ccc([C@@H](O)c2cc(-c3ncnc4cc(N5CCOCC5)ccc34)c(F)cc2Cl)nn1 | item: general and administration site disorders | locally advanced rectal cancer patients | 50 mg, with: capecitabine plus radiotherapy |  | patients with drug-related AE | 100% |
